Assay results collected from several papers.
Protocols differ between the studies behind these lines. ± marks the error that the study gave.
B1: EFR3B 716-787 (Homo sapiens, UniProt Q9Y2G0); chain VPAEEITYETLKKAIVDSVAVEEQERERRRQVVEKFQKAPFEEIAAHCGARASLLQSKLNQIFEITIRPPPS
B2: TOMM20 cytosolic domain, 62-127 (Homo sapiens, UniProt Q15388); N-terminal cysteine ATTO550 label; chain CDAEAVQKFFLEEIQLGEELLAQGEYEKGVDHLTNAIAVCGQPQQLLQVLQQTLPPPVFQMLLTKLP
B3: SRS2 1107-1174 D1151A (Saccharomyces cerevisiae, UniProt P12954); N-terminal cysteine BODIPY-FL; chain CHNPDDTTVDNRPIISNAKFLADAAMKKTQKFSKKVKNEPASSQMAIFSQLSRAKKKSKLNNGEIIVID
B4: Bcl2l11 (Mus musculus, UniProt O54918-2); chain MAKQPSDVSSECDREGGQLQPAERPPQLRPGAPTSLQTEPQDRSPAPMSCDKSTQTPSPPCQAFNHYLSAMASIRQSQEEPEDLRPEIRIAQELRRIGDEFNETYTRRVFANDYREAEDHPQMVILQLLRFIFRLVWRRH
B5: NRP1 (Arabidopsis thaliana); chain MVADKSKKSKIEEKGEEENLEQIDAELVLSIEKLQEIQDDLEKINEKASDEVLEVEQKYNVIRKPVYDKRNEVIQSIPGFWMTAFLSHPALGDLLTEEDQKIFKYLNSLEVEDAKDVKSGYSITFHFTSNPFFEDAKLTKTFTFLEEGTTKITATPIKWKEGKGLPNGVNHDDKKGNKRALPEESFFTWFTDAQHKEDAGDEIHDEVADIIKEDLWSNPLTYFNNDADEEDFDGDDDGDEEGEEDDDDEEEEDGEE
B6: IL18 37-193 C74S/T99C/C104S/C112S/P124C/C163S (Homo sapiens, UniProt Q14116); chain YFGKLESKLSVIRNLNDQVLFIDQGNRPLFEDMTDSDSRDNAPRTIFIISMYKDSQPRGMAVCISVKSEKISTLSSENKIISFKEMNCPDNIKDTKSDIIFFQRSVPGHDNKMQFESSSYEGYFLASEKERDLFKLILKKEDELGDRSIMFTVQNED
B7: NFKBIA 67-287 (Homo sapiens, UniProt P25963); sequence looked up; chain KQQLTEDGDSFLHLAIIHEEKALTMEVIRQVKGDLAFLNFQNNLQQTPLHLAVITNQPEIAEALLGAGCDPELRDFRGNTPLHLACEQGCLASVGVLTQSCTTPHLHSILKATNYNGHTCLHLASIHGYLGIVELLVSLGADVNAQEPCNGRTALHLAVDLQNPDLVSLLLKCGADVNRVTYQGYSPYQLTWGRPSTRIQQQLGQLTLENLQMLPESEDEE
B8: UBQLN2 450-624 S624C (UniProt Q9UHD9); Alexa Fluor 488 at C624; sequence looked up; chain RAMQALMQIQQGLQTLATEAPGLIPSFTPGVGVGVLGTAIGPVGPVTPIGPIGPIVPFTPIGPIGPIGPTGPAAPPGSTGSGGPTGPTVSSAAPSETTSPTSESGPNQQFIQQMVQALAGANAPQLPNPEVRFQQQLEQLNAMGFLNREANLQALIATGGDINAAIERLLGSQPC
B9: human PABP4; sequence looked up; chain MNAAASSYPMASLYVGDLHSDVTEAMLYEKFSPAGPVLSIRVCRDMITRRSLGYAYVNFQQPADAERALDTMNFDVIKGKPIRIMWSQRDPSLRKSGVGNVFIKNLDKSIDNKALYDTFSAFGNILSCKVVCDENGSKGYAFVHFETQEAADKAIEKMNGMLLNDRKVFVGRFKSRKEREAELGAKAKEFTNVYIKNFGEEVDDESLKELFSQFGKTLSVKVMRDPNGKSKGFGFVSYEKHEDANKAVEEMNGKEISGKIIFVGRAQKKVERQAELKRKFEQLKQERISRYQGVNLYIKNLDDTIDDEKLRKEFSPFGSITSAKVMLEDGRSKGFGFVCFSSPEEATKAVTEMNGRIVGSKPLYVALAQRKEERKAHLTNQYMQRVAGMRALPANAILNQFQPAAGGYFVPAVPQAQGRPPYYTPNQLAQMRPNPRWQQGGRPQGFQGMPSAIRQSGPRPTLRHLAPTGSECPDRLAMDFGGAGAAQQGLTDSCQSGGVPTAVQNLAPRAAVAAAAPRAVAPYKYASSVRSPHPAIQPLQAPQPAVHVQGQEPLTASMLAAAPPQEQKQMLGERLFPLIQTMHSNLAGKITGMLLEIDNSELLHMLESPESLRSKVDEAVAVLQAHHAKKEAAQKVGAVAAATS
Chain of UniProt P12259 (whole entry, unmodified, looked up): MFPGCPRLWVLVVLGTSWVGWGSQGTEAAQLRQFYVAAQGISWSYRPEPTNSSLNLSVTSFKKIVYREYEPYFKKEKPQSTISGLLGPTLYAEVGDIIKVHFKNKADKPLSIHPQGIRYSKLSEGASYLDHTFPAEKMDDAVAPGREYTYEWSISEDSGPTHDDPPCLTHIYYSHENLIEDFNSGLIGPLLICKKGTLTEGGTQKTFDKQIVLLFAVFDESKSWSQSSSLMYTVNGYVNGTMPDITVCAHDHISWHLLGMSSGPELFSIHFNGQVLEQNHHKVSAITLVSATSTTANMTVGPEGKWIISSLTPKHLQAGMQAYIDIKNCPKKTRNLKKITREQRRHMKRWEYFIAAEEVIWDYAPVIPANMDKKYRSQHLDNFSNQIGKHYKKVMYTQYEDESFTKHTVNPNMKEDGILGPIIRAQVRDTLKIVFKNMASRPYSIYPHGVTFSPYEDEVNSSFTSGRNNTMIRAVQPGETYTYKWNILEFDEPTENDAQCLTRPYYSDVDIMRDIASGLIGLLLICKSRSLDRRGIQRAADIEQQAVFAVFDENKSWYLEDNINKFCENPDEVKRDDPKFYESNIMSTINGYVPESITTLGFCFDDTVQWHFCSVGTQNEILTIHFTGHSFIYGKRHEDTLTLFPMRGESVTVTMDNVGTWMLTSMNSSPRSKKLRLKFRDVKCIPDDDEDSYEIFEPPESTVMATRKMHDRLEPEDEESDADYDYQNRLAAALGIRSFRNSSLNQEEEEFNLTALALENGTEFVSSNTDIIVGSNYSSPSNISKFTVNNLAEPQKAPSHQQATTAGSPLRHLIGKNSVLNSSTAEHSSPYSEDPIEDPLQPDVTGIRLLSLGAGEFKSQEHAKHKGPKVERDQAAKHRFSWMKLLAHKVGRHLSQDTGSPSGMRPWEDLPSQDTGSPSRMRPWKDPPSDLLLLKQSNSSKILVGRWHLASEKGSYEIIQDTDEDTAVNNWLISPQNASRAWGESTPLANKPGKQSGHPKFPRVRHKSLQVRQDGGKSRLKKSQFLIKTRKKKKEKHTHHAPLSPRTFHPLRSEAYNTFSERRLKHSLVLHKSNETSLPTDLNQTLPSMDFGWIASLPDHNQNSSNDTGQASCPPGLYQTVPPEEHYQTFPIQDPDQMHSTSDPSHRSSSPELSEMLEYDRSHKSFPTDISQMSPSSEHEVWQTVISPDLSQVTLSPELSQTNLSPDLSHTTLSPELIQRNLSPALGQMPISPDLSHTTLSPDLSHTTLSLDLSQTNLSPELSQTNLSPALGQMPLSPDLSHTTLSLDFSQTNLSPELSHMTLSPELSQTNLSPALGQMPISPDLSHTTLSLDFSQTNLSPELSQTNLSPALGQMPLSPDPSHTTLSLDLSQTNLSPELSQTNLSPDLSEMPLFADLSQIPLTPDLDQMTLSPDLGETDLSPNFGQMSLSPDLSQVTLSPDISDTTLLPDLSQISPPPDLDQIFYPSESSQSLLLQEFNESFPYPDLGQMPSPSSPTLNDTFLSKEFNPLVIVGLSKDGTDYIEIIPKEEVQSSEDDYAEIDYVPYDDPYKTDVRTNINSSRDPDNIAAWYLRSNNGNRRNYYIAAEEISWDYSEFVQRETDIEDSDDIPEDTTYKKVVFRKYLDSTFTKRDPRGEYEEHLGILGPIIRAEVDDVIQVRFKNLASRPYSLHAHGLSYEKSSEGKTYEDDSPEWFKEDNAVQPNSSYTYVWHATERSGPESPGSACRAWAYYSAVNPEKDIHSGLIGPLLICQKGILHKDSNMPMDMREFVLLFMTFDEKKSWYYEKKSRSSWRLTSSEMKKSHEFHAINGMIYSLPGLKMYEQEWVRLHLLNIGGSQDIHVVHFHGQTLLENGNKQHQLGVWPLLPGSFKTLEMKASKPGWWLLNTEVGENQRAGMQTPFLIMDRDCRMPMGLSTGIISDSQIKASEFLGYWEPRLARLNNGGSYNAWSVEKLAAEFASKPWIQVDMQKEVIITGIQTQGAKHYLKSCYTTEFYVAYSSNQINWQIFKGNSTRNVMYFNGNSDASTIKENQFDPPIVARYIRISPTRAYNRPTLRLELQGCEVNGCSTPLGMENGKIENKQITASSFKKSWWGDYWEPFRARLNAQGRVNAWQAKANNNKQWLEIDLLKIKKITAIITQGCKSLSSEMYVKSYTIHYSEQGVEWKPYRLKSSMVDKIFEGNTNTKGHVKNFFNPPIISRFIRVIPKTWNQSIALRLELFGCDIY
Chain of UniProt Q9ZU93 (whole entry, looked up): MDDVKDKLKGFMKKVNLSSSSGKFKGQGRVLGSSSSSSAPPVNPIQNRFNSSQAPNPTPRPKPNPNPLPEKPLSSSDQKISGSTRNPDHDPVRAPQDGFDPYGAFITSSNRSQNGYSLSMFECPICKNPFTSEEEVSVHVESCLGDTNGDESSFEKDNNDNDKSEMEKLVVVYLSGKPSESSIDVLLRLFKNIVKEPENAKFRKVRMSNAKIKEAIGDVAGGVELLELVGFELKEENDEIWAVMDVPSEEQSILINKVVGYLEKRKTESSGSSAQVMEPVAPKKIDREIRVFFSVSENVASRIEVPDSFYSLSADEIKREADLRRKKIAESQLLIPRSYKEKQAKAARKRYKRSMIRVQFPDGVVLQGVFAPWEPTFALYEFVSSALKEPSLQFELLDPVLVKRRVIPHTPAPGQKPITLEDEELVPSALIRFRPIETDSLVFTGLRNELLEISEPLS
Chain of UniProt P39900 (whole entry, unmodified, looked up): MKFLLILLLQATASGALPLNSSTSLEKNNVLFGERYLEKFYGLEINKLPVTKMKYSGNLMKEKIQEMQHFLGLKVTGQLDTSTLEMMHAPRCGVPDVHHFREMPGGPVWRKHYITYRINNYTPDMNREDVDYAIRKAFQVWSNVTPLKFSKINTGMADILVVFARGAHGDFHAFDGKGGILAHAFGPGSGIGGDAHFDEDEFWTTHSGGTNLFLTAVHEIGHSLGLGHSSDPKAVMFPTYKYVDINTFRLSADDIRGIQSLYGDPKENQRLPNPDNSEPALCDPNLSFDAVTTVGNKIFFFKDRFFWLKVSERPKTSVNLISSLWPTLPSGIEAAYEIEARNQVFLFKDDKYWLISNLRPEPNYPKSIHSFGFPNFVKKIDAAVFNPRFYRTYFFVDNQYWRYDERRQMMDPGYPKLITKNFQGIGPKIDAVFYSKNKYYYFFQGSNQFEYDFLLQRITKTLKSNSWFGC
Chain of UniProt Q9N5M6 (whole entry, looked up): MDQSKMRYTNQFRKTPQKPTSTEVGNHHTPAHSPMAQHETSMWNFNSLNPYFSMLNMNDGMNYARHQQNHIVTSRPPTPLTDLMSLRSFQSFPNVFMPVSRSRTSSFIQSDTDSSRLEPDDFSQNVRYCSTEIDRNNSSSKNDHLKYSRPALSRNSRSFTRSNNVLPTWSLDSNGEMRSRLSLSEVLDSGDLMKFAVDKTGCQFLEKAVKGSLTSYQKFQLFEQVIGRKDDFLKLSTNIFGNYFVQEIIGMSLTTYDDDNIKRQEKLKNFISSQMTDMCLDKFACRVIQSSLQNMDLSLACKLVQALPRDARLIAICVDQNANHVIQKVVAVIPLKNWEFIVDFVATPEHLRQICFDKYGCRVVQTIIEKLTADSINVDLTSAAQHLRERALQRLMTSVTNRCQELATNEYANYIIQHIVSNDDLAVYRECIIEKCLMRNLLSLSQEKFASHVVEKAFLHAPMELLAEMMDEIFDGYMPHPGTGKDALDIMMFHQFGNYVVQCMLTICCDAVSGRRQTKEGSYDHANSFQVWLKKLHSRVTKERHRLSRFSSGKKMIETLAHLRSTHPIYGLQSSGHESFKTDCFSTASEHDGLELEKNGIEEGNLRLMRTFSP
Chain of UniProt Q39011 (whole entry, looked up): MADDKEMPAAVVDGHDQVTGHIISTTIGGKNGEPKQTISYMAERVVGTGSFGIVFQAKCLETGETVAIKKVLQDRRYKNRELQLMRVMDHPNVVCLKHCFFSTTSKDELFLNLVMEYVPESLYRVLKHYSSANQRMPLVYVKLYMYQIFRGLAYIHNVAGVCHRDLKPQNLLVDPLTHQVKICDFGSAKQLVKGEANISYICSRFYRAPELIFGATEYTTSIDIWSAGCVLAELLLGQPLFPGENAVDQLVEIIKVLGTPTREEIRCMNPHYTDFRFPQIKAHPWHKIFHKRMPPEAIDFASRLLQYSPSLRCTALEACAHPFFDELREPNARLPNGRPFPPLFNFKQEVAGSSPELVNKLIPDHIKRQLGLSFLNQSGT
Chain of UniProt Q8NEM0 (whole entry, looked up): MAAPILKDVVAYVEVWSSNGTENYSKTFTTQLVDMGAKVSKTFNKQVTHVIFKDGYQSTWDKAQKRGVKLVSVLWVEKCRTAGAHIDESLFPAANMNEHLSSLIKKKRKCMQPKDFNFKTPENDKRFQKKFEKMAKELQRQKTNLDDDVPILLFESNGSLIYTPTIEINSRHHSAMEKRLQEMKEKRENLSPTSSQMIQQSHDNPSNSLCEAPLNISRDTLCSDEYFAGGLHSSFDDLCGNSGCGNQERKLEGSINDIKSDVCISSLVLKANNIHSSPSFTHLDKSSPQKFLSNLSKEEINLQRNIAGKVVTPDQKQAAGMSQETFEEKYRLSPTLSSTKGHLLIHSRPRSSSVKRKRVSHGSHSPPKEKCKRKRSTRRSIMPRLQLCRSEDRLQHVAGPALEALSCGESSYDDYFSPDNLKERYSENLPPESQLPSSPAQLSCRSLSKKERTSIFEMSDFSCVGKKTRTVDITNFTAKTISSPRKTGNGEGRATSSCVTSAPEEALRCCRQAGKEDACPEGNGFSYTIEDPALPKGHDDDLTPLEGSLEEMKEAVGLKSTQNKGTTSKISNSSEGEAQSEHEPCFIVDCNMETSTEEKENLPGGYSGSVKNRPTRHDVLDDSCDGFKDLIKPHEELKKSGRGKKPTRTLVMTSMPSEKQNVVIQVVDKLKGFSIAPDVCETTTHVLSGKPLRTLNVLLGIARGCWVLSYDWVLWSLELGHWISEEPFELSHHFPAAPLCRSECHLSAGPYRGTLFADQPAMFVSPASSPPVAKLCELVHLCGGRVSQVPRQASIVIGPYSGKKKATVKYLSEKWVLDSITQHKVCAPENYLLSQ

| Molecule | tested on | assay | system | setting | how to read | measurement | value |
| --- | --- | --- | --- | --- | --- | --- | --- |
| B1 (EFR3B 716-787) | TTC7B/FAM126B 1-308 | BLI |  |  |  | Kd | 0.345 nM |
| YLPTITGVGHLWHPLC (engineered peptide) | VPS29/VPS35 full length heterodimer (Homo sapiens) | ITC | peptide |  |  | Kd | 763 ± 12 nM |
| B2 | Fem1b (Mus musculus, UniProt Q9Z2G0) | fluorescence polarisation |  |  |  | Kd | 120 nM |
| B3 (SRS2 1107-1174 D1151A) | POL30 1-258 K127G (Saccharomyces cerevisiae, UniProt P15873) | fluorescence polarisation |  | apparent |  | Kd | 1670 nM |
| B4 (Bcl2l11) | MCL1 (Homo sapiens, UniProt Q07820) | FRET or BRET |  | not purified |  | Kd | 2000 nM |
| DNA topoisomerase 2-alpha (human) | PP6C (human) | co-immunoprecipitation, IP-MS | CYB5R4 knockout cells | concentration not given | baseline: CYB5R4 knockout over parental | log2 fold change | 0.09 |
| ERBB2 (Homo sapiens, UniProt P04626) | trastuzumab IgG, PBS-stressed 21 d, Asn deamidation, HC Asn55, LC Asn30, Fc | SPR |  |  |  | Kd | 3.9 nM |
| B5 (NRP1) | H4 fragment (Xenopus laevis) | SPR |  |  |  | Kd | 28900 nM |
| BIN2 (Arabidopsis thaliana, UniProt Q39011) | PCK1 (Arabidopsis thaliana, UniProt Q9T074) | BLI |  | without ATP |  | Kd | 180 nM |
| F10 factor Xa (Homo sapiens, UniProt P00742) | factor Va R506Q (Homo sapiens, UniProt P12259) | thrombin generation, prothrombinase activity titration |  |  |  | Kd | 0.2 ± 0.01 nM |
| PARRSEELVAEAHNLCTLLENAIQDTVREQDQSFTALDWSWLQTE (IKBKB 701-745 K703R/K704R (UniProt O14920); N-terminal FITC; sequence looked up) | IKBKG residues 44-113 R75V/E78R | fluorescence polarisation | peptide |  |  | Kd | 6520 nM |
| SSSPQQRSGLRSQKLHLTYIEKNKRVRAMIPQ (lst-1 67-98 (Caenorhabditis elegans, UniProt P91820); sequence looked up) | fbf-1 162-573 (Caenorhabditis elegans, UniProt Q9N5M6) | ITC | peptide | NaCl 150 mM |  | Kd | 200 nM |
| TIMP2 N-terminal domain | MMP12 catalytic domain 106-263 A252Q/T215V/A173P/A167E/V161I/M156E/Y132K/Y113D (Homo sapiens, UniProt P39900) | BLI |  |  |  | Kd | 290 nM |
| ARTKQTARKS (histone H3 1-10; K4me3) | ING1 163-234 Y180A (Arabidopsis thaliana, UniProt Q9LIQ6) | ITC | peptide |  |  | Kd | 6850 ± 610 nM |
| B6 | IL18BP (Homo sapiens, UniProt O95998) | SPR |  |  |  | Kd | 0.008 nM |
| PUX2 (Arabidopsis thaliana, UniProt Q9ZU93) | UBQ10 mature (Arabidopsis thaliana, UniProt Q8H159) | ITC |  | 25 °C |  | Kd | 79500 ± 32100 nM |
| H2AX/H2B/H3/H4 nucleosome core particle, pS139 (Homo sapiens) | MCPH1 BRCT 639-835 (Homo sapiens, UniProt Q8NEM0) | MST |  |  |  | Kd | 30 ± 6.7 nM |
| B7 (NFKBIA 67-287) | RelA/NFKB1 190-321 F309A | ITC |  |  |  | Kd | 19 nM |
| KLLMIIHDRREFAKFEKEKMNAKWDTGENPIYKSPVTTVVNPKYEGK (ITGB1 752-798 A786P (Homo sapiens, UniProt P05556-1); sequence looked up) | Tln2 312-408 (Mus musculus, UniProt Q71LX4) | NMR titration |  |  |  | Kd | 127000 nM |
| DHEYVLTESFLDSGAFPNHDVIDHNKMLNSNYNGNGILNKGGVLGLVKEYYKKSDVGR (ATG9 940-997 (Saccharomyces cerevisiae, UniProt Q12142); sequence looked up) | ATG23 A34E (Saccharomyces cerevisiae, UniProt Q06671) | BLI |  |  |  | Kd | 570 nM |
| GCVRLHESCLGQQVPCCDPAATCYCEGRGDRDMKCYCR (designed binder) | ITGA2B/ITGB3 K562 cells | flow cytometry | designed binder, U87MG |  |  | Kd | > 100 nM |
| SHREFPFYGDYGS (HTN1 residues 20-32) | TMEM97 (Homo sapiens, UniProt Q5BJF2) | SPR | peptide |  |  | Kd | > 50000 nM |
| AGRRSSYLLAIT (ARHGAP23 GBR (Homo sapiens); phosphoserine) | DLG4 GK domain (Rattus norvegicus) | ITC | peptide |  |  | Kd | 650 nM |
| B8 (UBQLN2 450-624 S624C) | ubiquitin M1-linked tetramer (UniProt P0CG48) | fluorescence polarisation |  |  |  | Kd | 5110 nM |
| B9 (human PABP4) | PP6C (human) | co-immunoprecipitation, IP-MS | CYB5R4 knockout cells | concentration not given | baseline: CYB5R4 knockout over parental | log2 fold change | -1.44 |

A few entries again:
| Molecule | tested on | assay | system | setting | how to read | measurement | value |
| --- | --- | --- | --- | --- | --- | --- | --- |
| B6 | IL18BP (Homo sapiens, UniProt O95998) | SPR |  |  |  | Kd | 0.008 nM |
| PUX2 (Arabidopsis thaliana, UniProt Q9ZU93) | UBQ10 mature (Arabidopsis thaliana, UniProt Q8H159) | ITC |  | 25 °C |  | Kd | 79500 ± 32100 nM |
